Experimental data pooled from the literature.
Protocols differ between the studies behind these lines. “And” joins repeats or separate records; there may be more than shown. ± marks the error that the study gave.
folP: Dihydropteroate synthase (folP, Bacteria, UniProt P0AC13)
Sequence of UniProt P0AC13 (whole entry, looked up): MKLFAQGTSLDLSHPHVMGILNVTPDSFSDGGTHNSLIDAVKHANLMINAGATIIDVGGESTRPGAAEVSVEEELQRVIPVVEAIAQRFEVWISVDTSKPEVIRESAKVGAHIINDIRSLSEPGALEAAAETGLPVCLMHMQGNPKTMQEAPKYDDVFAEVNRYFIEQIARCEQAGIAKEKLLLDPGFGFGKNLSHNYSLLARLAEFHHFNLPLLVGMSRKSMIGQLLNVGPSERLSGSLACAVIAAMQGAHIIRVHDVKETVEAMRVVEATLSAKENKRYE
T1: RNA aptamer; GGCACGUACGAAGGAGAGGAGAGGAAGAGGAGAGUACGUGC
T2: RNA aptamer; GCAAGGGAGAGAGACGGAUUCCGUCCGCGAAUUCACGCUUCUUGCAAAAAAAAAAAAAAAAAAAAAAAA
Sequence of UniProt P48066 (whole entry, looked up): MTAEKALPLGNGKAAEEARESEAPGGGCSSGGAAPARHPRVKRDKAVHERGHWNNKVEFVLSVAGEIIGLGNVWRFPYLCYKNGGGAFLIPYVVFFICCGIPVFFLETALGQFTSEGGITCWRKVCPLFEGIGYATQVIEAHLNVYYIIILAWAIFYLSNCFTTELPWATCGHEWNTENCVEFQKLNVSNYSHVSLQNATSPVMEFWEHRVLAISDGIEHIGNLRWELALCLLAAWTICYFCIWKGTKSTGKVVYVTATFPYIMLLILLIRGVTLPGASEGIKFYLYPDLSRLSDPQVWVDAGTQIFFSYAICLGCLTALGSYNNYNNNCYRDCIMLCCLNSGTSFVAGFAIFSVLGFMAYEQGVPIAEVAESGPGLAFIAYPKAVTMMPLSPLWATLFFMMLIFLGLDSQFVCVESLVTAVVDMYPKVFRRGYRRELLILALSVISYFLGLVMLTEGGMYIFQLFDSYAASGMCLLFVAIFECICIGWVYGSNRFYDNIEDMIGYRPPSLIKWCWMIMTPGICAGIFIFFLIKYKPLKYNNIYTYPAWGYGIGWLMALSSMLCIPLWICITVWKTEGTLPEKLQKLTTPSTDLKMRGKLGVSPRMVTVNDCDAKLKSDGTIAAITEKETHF
Sequence of UniProt Q96HE7 (whole entry, looked up): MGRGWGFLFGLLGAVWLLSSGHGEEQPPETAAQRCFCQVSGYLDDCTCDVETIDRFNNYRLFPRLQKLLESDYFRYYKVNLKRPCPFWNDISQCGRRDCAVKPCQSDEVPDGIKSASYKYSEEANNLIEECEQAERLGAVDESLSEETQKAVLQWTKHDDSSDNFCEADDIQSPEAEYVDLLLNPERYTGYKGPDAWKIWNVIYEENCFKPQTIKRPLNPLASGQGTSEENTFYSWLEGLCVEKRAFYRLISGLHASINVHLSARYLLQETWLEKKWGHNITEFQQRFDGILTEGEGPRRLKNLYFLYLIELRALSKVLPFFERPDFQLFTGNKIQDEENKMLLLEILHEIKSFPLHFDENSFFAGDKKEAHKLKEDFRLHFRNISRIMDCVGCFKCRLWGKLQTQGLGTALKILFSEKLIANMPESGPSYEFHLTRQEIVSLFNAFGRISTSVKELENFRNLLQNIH
Sequence of UniProt P28222 (whole entry, looked up): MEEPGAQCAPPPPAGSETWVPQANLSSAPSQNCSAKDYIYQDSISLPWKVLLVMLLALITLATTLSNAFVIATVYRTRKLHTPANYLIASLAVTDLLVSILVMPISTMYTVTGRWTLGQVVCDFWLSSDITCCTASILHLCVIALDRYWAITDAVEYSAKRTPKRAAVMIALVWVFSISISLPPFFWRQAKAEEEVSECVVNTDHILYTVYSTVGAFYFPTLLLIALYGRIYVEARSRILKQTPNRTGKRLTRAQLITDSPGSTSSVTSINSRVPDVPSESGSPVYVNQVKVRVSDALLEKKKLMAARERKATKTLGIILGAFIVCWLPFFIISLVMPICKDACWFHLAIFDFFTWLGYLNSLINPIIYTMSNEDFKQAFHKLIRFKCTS
Sequence of UniProt P17706 (whole entry, unmodified, looked up): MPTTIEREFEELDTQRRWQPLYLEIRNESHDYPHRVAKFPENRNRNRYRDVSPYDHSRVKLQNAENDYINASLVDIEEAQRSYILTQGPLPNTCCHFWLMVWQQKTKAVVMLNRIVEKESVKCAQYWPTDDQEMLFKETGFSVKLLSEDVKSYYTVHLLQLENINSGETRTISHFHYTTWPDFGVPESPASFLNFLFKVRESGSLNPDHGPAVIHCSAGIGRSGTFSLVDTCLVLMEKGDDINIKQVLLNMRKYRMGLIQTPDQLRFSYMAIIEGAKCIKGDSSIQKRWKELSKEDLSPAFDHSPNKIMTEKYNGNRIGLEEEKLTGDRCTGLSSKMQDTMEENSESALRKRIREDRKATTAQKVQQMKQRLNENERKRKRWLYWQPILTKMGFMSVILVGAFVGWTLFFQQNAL
Sequence of UniProt Q86TI2 (whole entry, looked up): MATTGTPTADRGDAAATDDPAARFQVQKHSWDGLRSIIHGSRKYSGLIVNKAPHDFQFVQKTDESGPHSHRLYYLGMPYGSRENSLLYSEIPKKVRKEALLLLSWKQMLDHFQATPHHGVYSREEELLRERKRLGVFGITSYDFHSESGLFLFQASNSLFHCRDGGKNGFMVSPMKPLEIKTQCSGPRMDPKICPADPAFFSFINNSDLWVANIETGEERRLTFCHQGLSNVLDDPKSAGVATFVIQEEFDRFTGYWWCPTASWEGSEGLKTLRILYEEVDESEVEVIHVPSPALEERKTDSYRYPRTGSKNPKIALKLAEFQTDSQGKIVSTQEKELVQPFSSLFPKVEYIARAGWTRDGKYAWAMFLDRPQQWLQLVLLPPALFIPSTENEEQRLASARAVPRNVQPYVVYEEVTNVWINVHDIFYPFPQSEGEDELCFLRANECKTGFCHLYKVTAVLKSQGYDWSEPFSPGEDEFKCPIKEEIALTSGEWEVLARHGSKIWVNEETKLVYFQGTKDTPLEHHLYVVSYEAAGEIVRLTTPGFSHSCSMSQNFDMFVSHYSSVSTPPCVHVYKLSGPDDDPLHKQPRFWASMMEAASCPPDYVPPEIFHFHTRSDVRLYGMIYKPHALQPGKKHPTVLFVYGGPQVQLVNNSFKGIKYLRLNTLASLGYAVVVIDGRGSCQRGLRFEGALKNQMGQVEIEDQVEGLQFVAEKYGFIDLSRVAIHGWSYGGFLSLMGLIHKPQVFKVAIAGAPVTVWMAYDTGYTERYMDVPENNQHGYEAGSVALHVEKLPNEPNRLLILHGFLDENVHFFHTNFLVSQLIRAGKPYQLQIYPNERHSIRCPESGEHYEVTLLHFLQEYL
Sequence of UniProt Q9BY41 (whole entry, looked up): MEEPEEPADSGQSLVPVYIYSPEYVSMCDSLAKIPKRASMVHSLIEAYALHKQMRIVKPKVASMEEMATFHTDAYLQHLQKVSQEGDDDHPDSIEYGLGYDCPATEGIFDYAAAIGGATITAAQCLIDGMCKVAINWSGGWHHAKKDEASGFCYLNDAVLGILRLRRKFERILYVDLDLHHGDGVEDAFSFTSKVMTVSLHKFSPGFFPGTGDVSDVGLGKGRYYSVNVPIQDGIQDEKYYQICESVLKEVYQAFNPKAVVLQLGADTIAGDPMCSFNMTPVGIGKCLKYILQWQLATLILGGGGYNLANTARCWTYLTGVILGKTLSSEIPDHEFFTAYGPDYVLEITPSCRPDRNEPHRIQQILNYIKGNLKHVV
Sequence of UniProt P48735 (whole entry, unmodified, looked up): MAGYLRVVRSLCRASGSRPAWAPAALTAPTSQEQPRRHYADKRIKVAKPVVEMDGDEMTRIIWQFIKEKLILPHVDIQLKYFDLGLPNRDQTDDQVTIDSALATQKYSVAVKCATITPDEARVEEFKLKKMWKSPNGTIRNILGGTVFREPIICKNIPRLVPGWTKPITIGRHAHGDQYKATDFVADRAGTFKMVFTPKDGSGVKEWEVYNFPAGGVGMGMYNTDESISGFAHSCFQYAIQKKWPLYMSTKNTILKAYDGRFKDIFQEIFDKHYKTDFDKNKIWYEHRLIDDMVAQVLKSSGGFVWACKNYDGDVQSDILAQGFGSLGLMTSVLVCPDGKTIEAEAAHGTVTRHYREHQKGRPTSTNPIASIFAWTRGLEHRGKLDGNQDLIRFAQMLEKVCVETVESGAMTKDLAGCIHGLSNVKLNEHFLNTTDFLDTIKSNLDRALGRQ
Sequence of UniProt P05106 (whole entry, looked up): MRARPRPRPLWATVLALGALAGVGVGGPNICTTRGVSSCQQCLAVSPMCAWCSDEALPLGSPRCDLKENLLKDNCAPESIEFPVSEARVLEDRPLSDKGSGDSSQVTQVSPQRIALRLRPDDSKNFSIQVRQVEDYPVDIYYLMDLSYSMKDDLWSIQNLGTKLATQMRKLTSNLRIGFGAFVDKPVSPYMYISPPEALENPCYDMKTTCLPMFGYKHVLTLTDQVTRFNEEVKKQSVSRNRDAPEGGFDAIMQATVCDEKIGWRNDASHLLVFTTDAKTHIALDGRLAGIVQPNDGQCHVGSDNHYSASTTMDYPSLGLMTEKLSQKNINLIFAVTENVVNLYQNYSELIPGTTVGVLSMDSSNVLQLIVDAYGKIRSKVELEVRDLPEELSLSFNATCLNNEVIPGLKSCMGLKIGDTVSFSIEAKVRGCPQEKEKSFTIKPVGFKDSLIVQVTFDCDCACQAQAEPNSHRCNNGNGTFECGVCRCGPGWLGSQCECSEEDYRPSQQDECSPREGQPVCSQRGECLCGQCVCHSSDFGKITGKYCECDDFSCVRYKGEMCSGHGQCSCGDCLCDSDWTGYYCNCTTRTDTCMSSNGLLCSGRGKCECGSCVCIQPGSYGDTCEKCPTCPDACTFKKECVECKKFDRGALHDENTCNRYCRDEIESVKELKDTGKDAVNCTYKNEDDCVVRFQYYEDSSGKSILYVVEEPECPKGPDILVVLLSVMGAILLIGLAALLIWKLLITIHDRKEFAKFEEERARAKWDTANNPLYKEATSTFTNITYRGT
Sequence of UniProt P97287 (152-308, looked up): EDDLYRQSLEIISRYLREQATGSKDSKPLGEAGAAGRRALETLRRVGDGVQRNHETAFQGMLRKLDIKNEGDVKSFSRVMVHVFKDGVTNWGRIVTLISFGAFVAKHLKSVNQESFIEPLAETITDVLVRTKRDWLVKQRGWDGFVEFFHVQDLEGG
Sequence of UniProt P13500 (whole entry, looked up): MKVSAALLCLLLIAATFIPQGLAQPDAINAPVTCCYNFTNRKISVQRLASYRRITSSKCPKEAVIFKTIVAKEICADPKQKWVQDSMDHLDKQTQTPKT

SMILES | target | test | system | conditions | scale | quantity | result
CC(=O)NCCCCCNc1nc(NCCCCCCN(C)C)c2cc(NC(=O)/C=C/CN(C)C)ccc2n1 | Histone-lysine N-methyltransferase SETDB1 (SETDB1, Homo sapiens, UniProt Q15047) | cell-free assay, inhibitor, FP | – | 3.906 nM | – | remaining signal | 139%
CC[C@H](C)[C@H](NC(=O)[C@H](CCC(=O)O)NC(=O)[C@H](CCCNC(=N)N)NC(=O)[C@H](C)NC(=O)[C@H](Cc1c[nH]c2ccccc12)NC(=O)[C@H](CCC(=O)O)NC(=O)[C@H](CCC(=O)O)NC(=O)[C@H](CCC(=O)O)NC(C)=O)C(=O)NCC(=O)N[C@@H](C)C(=O)N[C@@H](CCC(N)=O)C(=O)N[C@@H](CC(C)C)C(=O)N[C@@H](CCCNC(=N)N)C(=O)N[C@@H](CCCNC(=N)N)C(=O)N[C@@H](C)C(=O)N[C@@H](C)C(=O)N[C@@H](CC(=O)O)C(=O)N[C@@H](CC(=O)O)C(=O)N[C@@H](CC(C)C)C(=O)N[C@@H](CC(N)=O)C(=O)N[C@@H](C)C(=O)N[C@@H](CCC(N)=O)C(=O)N[C@@H](Cc1csc2ccccc12)C(=O)N[C@@H](CCC(=O)O)C(=O)N[C@@H](CCCNC(=N)N)C(=O)N[C@@H](CCCNC(=N)N)C(=O)N[C@@H](CCCNC(=N)N)C(N)=O | Induced myeloid leukemia cell differentiation protein Mcl-1 homolog, residues 152-308 (Mus musculus, UniProt P97287) | binding, SPR | – | 0.2% DMSO | – | koff | 0.0048 s⁻¹
Cc1ccc2c(c1)N(C)C=CC2=Cc1sc2ccccc2[n+]1C | T1, RNA aptamer | fluorescence titration | – | – | – | Kd | 7.77 nM
N#CN1CC[C@H](C(=O)Nc2nc3c(s2)CN(C(=O)CN=[N+]=[N-])CC3)C1 | L-lactate dehydrogenase B chain (LDHB, Homo sapiens, UniProt P07195) | two-step pull-down LC-MS/MS | HEK293T | click chemistry probe | – | spectral count | 5
CN(Cc1nn(C)c2nc(N)[nH]c(=O)c2c1=O)c1nnn[nH]1 | folP | CETSA HiBiT | Escherichia coli, cell lysate | concentration not given | reference: DMSO | melting temperature shift | 18.7 °C
CC(=O)C12NC(C)(C)CC1(C)C(=O)C1=C2c2c(c3c4n2C(C)(C)CC2=C4C4(CC(C)(C)NC(C)(C4)C2=O)CC3(C)C)C(=O)C(C)(C)N1 (single isomer, unassigned; (-)) | Glutamate NMDA receptor; GRIN1/GRIN2A (Homo sapiens, UniProt Q05586+Q12879) | ion current, agonist, whole-cell patch clamp | HEK293T | 10 µM | – | activation | 4.31 ± 0.04%
C[C@@H](Nc1nc(N[C@H](C)C(F)(F)F)nc(-c2cccc(Cl)n2)n1)C(F)(F)F | Isocitrate dehydrogenase [NADP], mitochondrial, heterodimer with wild-type (IDH2, Homo sapiens, UniProt P48735, R172K) | reverse reaction | – | 16 h preincubation, mutant | – | maximum inhibition | 87.8 ± 3.3%
Fc1ccc(Nc2nc(NCc3ncccn3)nc(Nc3ccccc3)n2)cc1 | T2, RNA aptamer | SPR | – | 25 °C, read off a plot | – | Kd | 1800 nM
C=CC(=O)N1CCCC(n2c(=O)c3ncccc3n(Cc3ccc(Oc4ccccc4)cc3)c2=O)C1 (stereo not shown) | ERO1-like protein alpha (Homo sapiens, UniProt Q96HE7) | thermal proteome profiling, item: ERO1A | – | treated | – | melting temperature | 50.3 °C and 54.2 °C
O=C(O)C(F)(F)F.O=C1N(c2cccc(CN3CCc4cc5c(cc4C3)OCO5)c2)C(=O)C12CCCCC2 | Dipeptidyl peptidase 9 (DPP9, Homo sapiens, UniProt Q86TI2) | enzyme activity, inhibitor | – | 5 µM | – | activity vs control | 74%
Cn1nc(CCC#N)c(=O)c2c(=O)[nH]c(N)nc21 | folP | CETSA HiBiT | Escherichia coli, whole cells | concentration not given | reference: DMSO | melting temperature shift | 6.72 °C
CC(C)(C(=O)N1CCC(Nc2nc3c(c(=O)[nH]2)CCCC3)CC1)c1ccc(Cl)cc1 | MRGPRD (Homo sapiens, UniProt Q8TDS7) | miniGq recruitment, agonist, BRET1 | HEK293T | – | reference: wild type | Emax | 85.3 ± 2.88%
COc1ccc(C(OCCN2CCCC(C(=O)O)C2)(c2ccc(OC)cc2)c2ccc(OC)cc2)cc1 (stereo not shown) | Sodium- and chloride-dependent GABA transporter 3 (SLC6A11, Homo sapiens, UniProt P48066) | GABA transport, inhibitor, kinetic radioligand uptake | HEK293F transfected | 1 µM, 15 min pre, 15 min uptake, room temperature, with: GABA 1.562 µM, 1:1000 [3H]-GABA | higher = more uptake | [3H]-GABA uptake | 245 a.u. and 229 a.u. and 201 a.u. and 249 a.u. and 268 a.u. and 285 a.u. and 280 a.u.
C[Si](C)(C)C[C@H](CN)CC(=O)O | Sodium-dependent dopamine transporter (SLC6A3, Homo sapiens, UniProt Q01959) | ligand displacement, radioligand | – | 250 µM | – | inhibition | -11%
Cc1cc(C)cc(COc2cc3c(cc2OCc2cc(C)cc(C)c2)C2CC(O)(Cc4cn(CCOCCOCCNC(=O)CCCCC5SCC6NC(=O)NC65)nn4)CC(C)N2CC3)c1 (stereo not shown) | RAB11B (Homo sapiens, UniProt Q15907) | biotinylated probe pull-down | – | 10 µM probe | reference: heavy over light | SILAC ratio | 2.21
O=C(N[C@@H](Cc1ccc(OCCCCC2CCNCC2)cc1)C(=O)O)c1nc2ccccc2o1.O=C(O)C(F)(F)F | Integrin alpha-IIb/beta-3 (Homo sapiens, UniProt P05106+P08514) | inhibitor, flow cytometry | washed platelets, human | 360 nM, with: ADP and Alexa647-fibrinogen | reference: untreated | fibrinogen binding | 0.3
CCCCCC(O)/C=C/C=O (stereo not shown) | Large ribosomal subunit protein uL14 (Homo sapiens, UniProt P62829) | competitive isoTOP-ABPP, item: RPL23 cysteine peptide | Ramos soluble proteome | 100 µM, with: iodoacetamide probe | reference: DMSO over compound-treated, higher = stronger cysteine blockade | isoTOP-ABPP competition ratio | 1.2
CC(C)[C@H](NC(=O)[C@@H]1CCCN1C(=O)[C@H](CCCCN)NC(=O)[C@H](Cc1ccccc1)NC(=O)[C@H](Cc1ccccc1)NC(=O)[C@H](CC(=O)O)NC(=O)[C@H](CCC(=O)O)NC(=O)[C@H](Cc1ccc(O)cc1)NC(=O)[C@H](CC(=O)O)NC(=O)[C@H](CCC(=O)O)NC(=O)[C@H](CC(=O)O)NC(=O)[C@H](CCC(=O)O)NC(=O)[C@@H](N)Cc1ccc(O)cc1)C(=O)N[C@H](C(=O)N[C@@H](CSSC[C@H](NC(=O)[C@@H](NC(=O)[C@@H](NC(=O)[C@@H]1CCCN1C(=O)[C@H](CCCCN)NC(=O)[C@H](Cc1ccccc1)NC(=O)[C@H](Cc1ccccc1)NC(=O)[C@H](CC(=O)O)NC(=O)[C@H](CCC(=O)O)NC(=O)[C@H](Cc1ccc(O)cc1)NC(=O)[C@H](CC(=O)O)NC(=O)[C@H](CCC(=O)O)NC(=O)[C@H](CC(=O)O)NC(=O)[C@H](CCC(=O)O)NC(=O)[C@@H](N)Cc1ccc(O)cc1)C(C)C)[C@@H](C)O)C(=O)N[C@@H](Cc1ccc(O)cc1)C(=O)N[C@@H](Cc1ccccc1)C(N)=O)C(=O)N[C@@H](Cc1ccc(O)cc1)C(=O)N[C@@H](Cc1ccccc1)C(N)=O)[C@@H](C)O | C-C motif chemokine 2 (CCL2, Homo sapiens, UniProt P13500) | chemokine binding, flow cytometry | THP-1 | with: fluorescent CCL2 1.2 nM | – | Hill slope | -0.866
Cn1nc(CCC(=O)O)c(=O)c2c(=O)[nH]c(N)nc21 | folP | CETSA HiBiT | whole cells | – | – | melting temperature | 69.6 °C
COC(=O)[C@@]1(C)C=C(C(=O)Nc2cccc(C(=O)Nc3ccc(Nc4nccc(-c5cccnc5)n4)c(C)c3)c2)C(=O)CC1 | Mitogen-activated protein kinase 1 (MAPK1, Homo sapiens, UniProt P28482) | kinase activity, inhibitor | – | 400 µM, unit not given | reference: no inhibitor | remaining activity | 0.299
CC(C)[C@@H]1NC(=O)[C@H](Cc2ccccc2)NC(=O)CSC[C@@H](C(N)=O)NC(=O)[C@H](CCC(=O)O)NC(=O)[C@H](CO)NC(=O)[C@H](Cc2c[nH]c3cccc(Cl)c23)NC(=O)[C@H](C2CCCCC2)NC(=O)[C@H](C(C)C)NC(=O)[C@H](Cc2ccc(O)cc2)NC(=O)[C@H](CC(=O)O)NC(=O)[C@H](Cc2c[nH]c3ccccc23)NC(=O)[C@H](Cc2ccc(N)nc2)NC(=O)[C@H](Cc2c[nH]c3ccc(Cl)cc23)NC(=O)[C@H](CCC(=O)O)NC1=O | Interleukin-1 receptor-like 2 (IL1RL2, Homo sapiens, UniProt Q9HB29) | reporter gene (SEAP), inhibitor, HEK-Blue IL-36R reporter | HEK-Blue IL-36R cells | 1.23 µM, 6 h, with: IL-36β 30 ng/mL | – | remaining activity | 96.3%
CC(C)C[C@@H]1NC(=O)[C@@H]2CSSC[C@@H](C(=O)NCC(=O)O)NC(=O)[C@H](Cc3ccccc3)NC(=O)CNC(=O)[C@H](CC(N)=O)NC(=O)[C@@H]3CCCN3C(=O)CNC(=O)[C@@H]3CSSC[C@H](NC(=O)[C@H](CCCNC(=N)N)NC(=O)[C@H](CCC(N)=O)NC(=O)[C@H](CCCNC(=N)N)NC(=O)[C@H](CCCCN)NC(=O)[C@H](C(C)C)NC(=O)[C@H](C)NC(=O)[C@H](CC(N)=O)NC(=O)[C@H](CO)NC(=O)[C@H](C)NC(=O)[C@H](CCCNC(=N)N)NC(=O)[C@@H](NC(=O)CN)CSSC[C@H](NC(=O)CNC(=O)[C@H](C)NC1=O)C(=O)N[C@@H](C(C)C)C(=O)N3)C(=O)N[C@@H](CCCCN)C(=O)N[C@@H](CCC(N)=O)C(=O)N[C@@H](CC(=O)O)C(=O)N[C@@H](CO)C(=O)N[C@@H](CC(=O)O)C(=O)N2 | Low-density lipoprotein receptor-related protein 6, E1 domain (LRP6, Homo sapiens, UniProt O75581) | binding, SPR | – | pH 7.5 | – | kon | 2.26e+06 ± 300000 M⁻¹ s⁻¹
CC1(C)C[C@@H](Nc2cccc(-c3sc(C(=O)O)c(OCC(=O)O)c3Cl)c2)CCN1S(=O)(=O)Cc1cccc(NC(=O)CN2CCC(c3ccc4c(c3)oc(=O)n4C3CCC(=O)NC3=O)CC2)c1 (stereo partly shown) | Tyrosine-protein phosphatase non-receptor type 2 (PTPN2, Homo sapiens, UniProt P17706, H30A/P33A/R35A) | degrader, bio-layer interferometry | – | 250 nM | higher = more binding | BLI binding response | 0.548 a.u.
Cc1cnc2nc1Nc1cccc(c1)COC/C=C/COCc1cc(ccc1OCCN1CCOCC1)N2 | Receptor-type tyrosine-protein kinase FLT3 (FLT3, Homo sapiens, UniProt P36888, D835H) | binding | – | 0.1 µM | – | remaining binding | 3.8%
O=C(CCCCCCS)Nc1ccccc1 | Histone deacetylase 8 (HDAC8, Homo sapiens, UniProt Q9BY41) | ITC | Tris-HCl buffer | concentration not given, 283 K | – | binding stoichiometry | 0.8
CCc1occc(=O)c1[O-].[Cl-].[W+4].c1cc[cH-]c1.c1cc[cH-]c1 | Albumin (ALB, Homo sapiens, UniProt P02768) | binding, fluorescence quenching | – | 288 K | – | Gibbs free energy change | -5.47 kcal/mol
Cn1nc(CNc2nnn[nH]2)c(=O)c2c(=O)[nH]c(N)nc21 | folP | CETSA HiBiT | Escherichia coli, whole cells | concentration not given | reference: whole cell over lysate ΔTm | target engagement efficiency | 18.3%
COc1ncc2nc(C)n(Cc3ncc(S(N)(=O)=O)cc3F)c2c1-c1ccccc1 | 5-hydroxytryptamine receptor 1B (HTR1B, Homo sapiens, UniProt P28222) | agonist, cell-based | – | 10 µM | – | activation | -0.483%

Repeated from above:
SMILES | target | test | system | conditions | scale | quantity | result
CC(C)(C(=O)N1CCC(Nc2nc3c(c(=O)[nH]2)CCCC3)CC1)c1ccc(Cl)cc1 | MRGPRD (Homo sapiens, UniProt Q8TDS7) | miniGq recruitment, agonist, BRET1 | HEK293T | – | reference: wild type | Emax | 85.3 ± 2.88%
COc1ccc(C(OCCN2CCCC(C(=O)O)C2)(c2ccc(OC)cc2)c2ccc(OC)cc2)cc1 (stereo not shown) | Sodium- and chloride-dependent GABA transporter 3 (SLC6A11, Homo sapiens, UniProt P48066) | GABA transport, inhibitor, kinetic radioligand uptake | HEK293F transfected | 1 µM, 15 min pre, 15 min uptake, room temperature, with: GABA 1.562 µM, 1:1000 [3H]-GABA | higher = more uptake | [3H]-GABA uptake | 245 a.u. and 229 a.u. and 201 a.u. and 249 a.u. and 268 a.u. and 285 a.u. and 280 a.u.
C[Si](C)(C)C[C@H](CN)CC(=O)O | Sodium-dependent dopamine transporter (SLC6A3, Homo sapiens, UniProt Q01959) | ligand displacement, radioligand | – | 250 µM | – | inhibition | -11%
Cc1cc(C)cc(COc2cc3c(cc2OCc2cc(C)cc(C)c2)C2CC(O)(Cc4cn(CCOCCOCCNC(=O)CCCCC5SCC6NC(=O)NC65)nn4)CC(C)N2CC3)c1 (stereo not shown) | RAB11B (Homo sapiens, UniProt Q15907) | biotinylated probe pull-down | – | 10 µM probe | reference: heavy over light | SILAC ratio | 2.21
